Measured values from different studies.
Each line is one published result; not all experiments were run side by side. Values joined by “and” are separate records of one study, mostly repeats; a detail may differ. ± gives the spread as reported.

| Compound | tested on | test | test system | conditions | scale | endpoint | value |
| --- | --- | --- | --- | --- | --- | --- | --- |
| O=C1NC2(CC2)COc2ncc(F)cc2[C@H]2COCCN2c2ccn3ncc1c3n2 |  |  | Sprague-Dawley rat, male | oral, 2.5 mg/kg/day, end of treatment, 4-week repeated-dose toxicity |  | body weight | 440 ± 33.5 g |
| NNC(=O)c1ccccc1 |  | hydrazine ligation kinetics, absorbance |  | concentration not given, 50 s, added: 2-formylphenylboronic acid |  | normalised absorbance | 0.798 |
| C=CCN1C(=O)C(CC=C)(C(=O)OCC)Oc2cc(F)ccc21 (stereo not drawn) | Arabidopsis thaliana |  | Col-0, seed germination, dark | 50 µg/mL, 7 days, 22 °C |  | stem length inhibition | 95.7% |
| CN1CCN(S(=O)(=O)c2ccc(-c3ccc4ncnc(Nc5ccc(Cl)cc5)c4c3)cc2)CC1 | Plasmodium falciparum | parasite growth, SYBR Green | D6 | blood stage |  | EC50 | 110 nM |
| CC(C)(C)C(=O)OCOP(=O)(OCOC(=O)C(C)(C)C)C1CCCN(O)C1=O (stereo not drawn) | SK-MEL-2 |  |  |  |  | log TGI | -5.06 log M |
| CC(C)CC(C(=O)N1CC2(CC1C#N)C(=O)Nc1ccccc12)N(C)C(=O)c1cc2c(F)cc(F)c(F)c2[nH]1 (stereo not drawn) | Human coronavirus 229E | cytopathic effect | MRC5 | 516.5 pM |  | inhibition | 10.1% |
| Cc1cc(C(=O)Nc2nc3cccc(C)c3n2[C@H]2CCCCN(C(=O)/C=C/CN(C)C)C2)ccn1 | Trypanosoma brucei | propidium iodide flow cytometry | bloodstream form | concentration not given, 48 h |  | multinucleated cells | 8.62% |
| Cc1ccc(N2CC3CC(C2)N3C)cc1C(=O)NC1(c2ccc3c4c(cccc24)C(=O)N3C)CC1 | human coronavirus 229E | viral replication | Huh-7 | 0.04688 µM |  | inhibition | 0% |
| COc1ccccc1-c1n[nH]c2nc(N[C@H]3CC[C@H](NS(=O)(=O)CC(C)C)CC3)ncc12 |  | bead binding, competition bead pull-down, refers to: LINJ.28.2430 | Leishmania donovani extract | 10 µM | reference: vehicle | relative abundance | 0.96 |
| CC(C)C[C@@H]1NC(=O)[C@@H](Cc2c[nH]c3ccccc23)NC(=O)[C@H](CCCNC(=N)N)NC(=O)[C@@H](CCC(=O)O)NC(=O)[C@H](CCC(N)=O)NC(=O)[C@@H](CCC(=O)O)NC(=O)[C@H](CCCNC(=N)N)NC(=O)[C@@H](Cc2c[nH]c3ccccc23)NC1=O |  | refers to: IL6 | LDLr-/- mouse on Western diet, liver | dose not given, 4 weeks |  | cytokine level | 260 ± 55 pg/g tissue |
| Cc1cc(Oc2nc(N3CC[C@@H](c4ccncc4)C3)ncc2F)[nH]n1 | Mycobacterium tuberculosis |  | THP-1, H37Rv non-replicating | 3.001 µM, day 4 |  | normalised growth | 3.77% and 13.2% |
| COc1ccccc1-c1n[nH]c2nc(NC3CCN(C(=O)Cc4ccc(F)cc4F)CC3)ncc12 |  | bead binding, competition bead pull-down, refers to: LINJ.20.0110 | Leishmania donovani extract | 10 µM | reference: vehicle | relative abundance | 0.94 |
